Results of several laboratories.
Every numbered part comes from another study and shows a few of its results, in no order.

Sample 1 — technique: protein-binding microarray; molecule type: double-stranded DNA, one strand shown; matrix: in vitro; tested at: 0.8 µM; setting: whole 60-bp probe, no competitor; reading: higher = stronger binding; endpoint: fluorescence intensity
Target: Centromere-binding protein 1, full length, N-terminal tag (CBF1, Saccharomyces cerevisiae, UniProt P17106, residues 1-351)
Sequence of UniProt P17106 (whole entry, looked up): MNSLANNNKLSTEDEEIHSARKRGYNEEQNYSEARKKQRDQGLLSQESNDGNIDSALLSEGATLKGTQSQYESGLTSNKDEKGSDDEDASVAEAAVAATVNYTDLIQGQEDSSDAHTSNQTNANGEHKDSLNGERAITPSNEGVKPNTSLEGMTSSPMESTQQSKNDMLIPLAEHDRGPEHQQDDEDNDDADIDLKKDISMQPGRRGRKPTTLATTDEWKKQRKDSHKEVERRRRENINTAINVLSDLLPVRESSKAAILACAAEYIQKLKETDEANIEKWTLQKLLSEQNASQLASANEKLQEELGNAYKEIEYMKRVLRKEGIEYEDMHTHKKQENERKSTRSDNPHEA
GAAACTTTTAGCTCAAACGTGGTAAAACTATCTTAGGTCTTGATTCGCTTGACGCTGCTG: 562 a.u.
GAAGATCGGTAATAGAACATCAGGATTACTCTGTAGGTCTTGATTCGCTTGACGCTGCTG: 513 a.u.
GAAGAATCCTAATTCAACGTGAAATTGGTGGACTAGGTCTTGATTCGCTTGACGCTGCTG: 541 a.u.
CTAATATAACACTCTGATGCAGATTTATGAATATTCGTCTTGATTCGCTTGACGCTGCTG: 504 a.u.
GAATACATAAAGAAGAAGGTGACAGAAATTTGCTAGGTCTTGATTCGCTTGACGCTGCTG: 549 a.u.
GAAACCGTCGCTGTGCACGTGACACTCACTTCATAGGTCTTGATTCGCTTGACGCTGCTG: 20900 a.u.
CCTAACTACTATATAAACGTGGCATAGCTTCGTACAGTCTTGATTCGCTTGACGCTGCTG: 518 a.u.
CTACTGTCTTCTGCCCACGTCATATGAGTGGTATTCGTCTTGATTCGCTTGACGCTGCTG: 723 a.u.
CTATCCATTTATATAAACGTGTGCATATTAATGTTCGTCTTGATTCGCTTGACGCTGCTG: 763 a.u.
CTATTGACGCGTCAGAACGTGTGTTTTAGGAATTTCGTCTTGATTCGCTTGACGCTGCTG: 522 a.u.
GAAAAATCTTCAGGTCACAAGGTATACTTCACTTAGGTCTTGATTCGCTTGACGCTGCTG: 944 a.u.
GAATGGATTTTTCAAGGTGACCCGCACTATGAGTAGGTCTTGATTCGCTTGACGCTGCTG: 529 a.u.
CTACCTACGCTCTTTCACGTTTGTGCTGATAGATTCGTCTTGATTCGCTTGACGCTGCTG: 562 a.u.
CTATAGTGGGAAGGACTGATGATGAATTCCCGTTTCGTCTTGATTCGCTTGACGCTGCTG: 522 a.u.
GAATACAGGTGTTATGGCACGTGCGAATAAGGGTAGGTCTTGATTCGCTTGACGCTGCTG: 10400 a.u.
TGTACGAAGCTATGGGGCATGACTATAGTAGTTAGGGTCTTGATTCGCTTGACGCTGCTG: 572 a.u.
GAAGATCTGCTATTGCATGTGGTGAAAGTTATATAGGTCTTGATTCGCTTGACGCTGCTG: 566 a.u.
GAATCACGACCCGCGGGTGAGCCCACACTCACCTAGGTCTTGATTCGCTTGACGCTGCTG: 503 a.u.
GAAATTTATGGGCACCTGATAATGCTTGGCAGCTAGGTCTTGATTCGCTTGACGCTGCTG: 1780 a.u.
CTATGTACTTCATCAAACACCACGCTGTCAGGCTTCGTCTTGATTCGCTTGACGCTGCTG: 569 a.u.
GAAACAGGCTACAACCACCACCTTCAATGAAGATAGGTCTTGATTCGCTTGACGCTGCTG: 482 a.u.
GAATCCGTGGATCGCCATGTGATATTTCTATTTTAGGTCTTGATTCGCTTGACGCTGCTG: 1300 a.u.
CCTAACTACTATAGTGATGCAGTATAGCTTCGTACAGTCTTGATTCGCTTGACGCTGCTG: 531 a.u.
TGTACGAAGCTATACATCGTGCATATAGTAGTTAGGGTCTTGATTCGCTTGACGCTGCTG: 533 a.u.
GAACTAACGACACGGCACGTGATTACTGATCTGTAGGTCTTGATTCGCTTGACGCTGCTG: 11100 a.u.

Sample 2 — technique: universal PBM; molecule type: double-stranded DNA, one strand shown; matrix: in vitro; tested at: 600 nM; reading: higher = stronger binding; endpoint: E-score
Target: Sal-like protein 4, full length isoform A (SALL4, Homo sapiens, UniProt Q9UJQ4, residues 1-1053)
Sequence of UniProt Q9UJQ4 (whole entry, looked up): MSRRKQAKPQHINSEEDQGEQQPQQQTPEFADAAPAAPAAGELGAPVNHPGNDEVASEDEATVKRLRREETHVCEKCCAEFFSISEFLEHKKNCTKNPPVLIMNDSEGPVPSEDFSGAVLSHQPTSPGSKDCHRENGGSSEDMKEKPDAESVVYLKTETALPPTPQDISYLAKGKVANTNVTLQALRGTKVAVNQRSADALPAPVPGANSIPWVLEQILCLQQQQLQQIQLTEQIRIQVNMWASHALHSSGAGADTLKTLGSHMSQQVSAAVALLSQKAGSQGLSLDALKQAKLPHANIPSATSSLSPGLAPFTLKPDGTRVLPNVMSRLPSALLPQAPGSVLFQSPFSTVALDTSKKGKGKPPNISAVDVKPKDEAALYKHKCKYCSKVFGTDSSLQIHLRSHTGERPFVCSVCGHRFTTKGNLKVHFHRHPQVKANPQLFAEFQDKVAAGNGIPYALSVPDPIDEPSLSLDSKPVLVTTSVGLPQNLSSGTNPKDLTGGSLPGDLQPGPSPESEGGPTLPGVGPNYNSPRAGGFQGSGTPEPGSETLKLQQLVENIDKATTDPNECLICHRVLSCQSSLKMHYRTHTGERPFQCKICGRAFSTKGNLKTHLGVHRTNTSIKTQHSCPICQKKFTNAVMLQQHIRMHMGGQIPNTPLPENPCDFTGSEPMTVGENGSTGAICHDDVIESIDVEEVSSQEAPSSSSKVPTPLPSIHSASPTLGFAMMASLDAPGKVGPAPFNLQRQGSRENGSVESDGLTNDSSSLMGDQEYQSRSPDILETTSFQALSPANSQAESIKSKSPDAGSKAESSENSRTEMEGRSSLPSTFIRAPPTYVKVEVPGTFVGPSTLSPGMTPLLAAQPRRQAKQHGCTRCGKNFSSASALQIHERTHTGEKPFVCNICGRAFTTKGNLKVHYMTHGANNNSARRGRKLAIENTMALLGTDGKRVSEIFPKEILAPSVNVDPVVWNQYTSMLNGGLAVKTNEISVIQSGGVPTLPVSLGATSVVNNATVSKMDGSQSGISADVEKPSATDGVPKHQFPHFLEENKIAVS
Setting: 8-mer, flanks averaged, mean of replicates
CATGTTGA: 0.264
AAAAAGGT: 0.051
ACCTCTTC: 0.0964
CGTTCTGA: -0.0974
CTATGGAC: -0.0185
AGAACTTG: 0.107
ACGCGCAA: -0.0231
TAAGGATA: 0.167
AATTTAAA: 0.319
CCGGGTAA: -0.195
CGTCATCC: -0.108
CACCTCTG: -0.213
CCCACCCC: -0.135
GCGCACAC: -0.192
ACGTTTTG: 0.0935
GGGCGATA: -0.147
CTAACTAG: 0.163
TGCGGCCA: -0.246

Sample 3 — technique: protein binding microarray; molecule type: double-stranded DNA, one strand shown; matrix: in vitro; tested at: not given; reference: not given; reading: higher = stronger binding; endpoint: E-score
Target: Histone acetyltransferase KAT6A, winged helix 2, GST fusion (KAT6A, Homo sapiens, UniProt Q92794, residues 85-181)
Setting: 8-mer, flanks averaged, mean of 2 arrays, mostly near background
Construct (chain): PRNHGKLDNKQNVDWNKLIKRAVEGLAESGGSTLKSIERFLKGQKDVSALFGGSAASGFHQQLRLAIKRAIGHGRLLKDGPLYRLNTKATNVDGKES
GGGATATA: 0.0478
AATTCATA: 0.129
GACCGGGA: -0.0313
ACGTATGC: -0.138
CCAGTTCG: 0.208
GTCATAGA: -0.0874
ATTCCACC: 0.0421
GGGAACGA: -0.0227
GCCGCCGC: 0.212
CATCAGCG: -0.0787
GAGCGGGA: 0.112
CGCTAATC: -0.0446
GGCTATGA: 0.0169
CGGGGTCA: 0.0868
TTATTAAA: 0.185
CACGCTTC: -0.0971
CCGGATCA: 0.193
CATAACCC: -0.221
AATATTAT: 0.0602
GCAGCAGC: 0.13
GAAGACCA: 0.0756
CTCGTCAG: 0.06
AAGGAAGC: -0.137
ATGTTCGC: -0.0438
ATCAGGAC: 0.0165

Sample 4 — technique: RNA Bind-n-Seq; molecule type: RNA; matrix: in vitro; tested at: 365 nM; reference: no-protein control; reading: higher = stronger binding; endpoint: RBNS enrichment (R)
Target: RNA binding protein fox-1 homolog 2, RRM domain, GST-SBP tag (RBFOX2, Homo sapiens, UniProt O43251-10, residues 100-194)
Setting: natural RNA segment, single round, ends assumed
Residues (chain): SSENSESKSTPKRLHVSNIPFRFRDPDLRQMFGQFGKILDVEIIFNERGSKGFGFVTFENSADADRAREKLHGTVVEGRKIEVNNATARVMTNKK
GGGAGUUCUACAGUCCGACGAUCUUUUUUUUAGAGACAGGAUCUUGCUAUGUUGCCCAGGCUAGAGAGCAGUGGCUUUUCACAGACAAAGUCAUAAUGCCCUGCAGUCUUGGGCUCAAGCGAUUCUCUCUUCCUGGAAUUCUCGGGUGCCAA: 0.291
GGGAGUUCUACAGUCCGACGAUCAACCCCAGCGGGCCCUCUGGAGUCCGCCCUGCCCCUCCCCCGGCCCCCCAUCCCUCACUUCUGGGCUGUCAUGCUCCUGGUGUGCCCCUUGCACUGGGGCUGGCUGGGUUUGGAAUUCUCGGGUGCCAA: 0.474
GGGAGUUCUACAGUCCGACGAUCAUCAGGAAUUUUGUCCGUGUAUAAGGGGUUCUAAGUUUCAAAGCUUGUUCAGUGUGAUGGAAUAACAAGAUGAAUUAUUGGUGAUUUUUCAUAAUCGAUGUGGUCUACUAUGGAAUUCUCGGGUGCCAA: 0.546
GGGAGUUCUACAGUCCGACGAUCCAGAGGAUUAUUUUCCUGCCUUGGCAGAGGAGGAGGAGUCAAGGGAGCAGGGCAGCUCUACCAGGCAAGGUGUUUCCCCAGCAUAGGCGCAGACAGUUGGGACGAAACUUUGGAAUUCUCGGGUGCCAA: 0.663
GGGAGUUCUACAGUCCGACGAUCCUGUUGUAGUUACAGGUGCUCUUACUGGGCUCUGCUCUAGUGUUCCACUUCCUAGAAGUUUAUCCAGUGAACUAGACACUAAGCCAAGCACAUGUCCAGGAGGGUUGCUGUGGAAUUCUCGGGUGCCAA: 0.24
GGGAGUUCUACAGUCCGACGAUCUUCUGCCCUGCCAGCUGCAGCCUGGUUGGCAGCAUCUGCUCCAUCGGGGCAGGGGGUAUGCAGAGCUUGUGGUGGGGCAGGAACGGUGGAGGCAGAGGUGACAGUUCCCAUGGAAUUCUCGGGUGCCAA: 0.996
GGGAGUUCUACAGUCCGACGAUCCUGCAUAGGUACAUCUAACUCUGGACUGGCAUGCACAUUGUCAUGUGCAGCUUUGCAUAUACACACAUGCAUACAUGAGCCUCCACACAAGCACUUGCACACAUGUGGACUGGAAUUCUCGGGUGCCAA: 0.468
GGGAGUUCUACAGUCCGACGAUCCCUAUCCCCCUGCCCCCGCCUCACACUACAGUUUAAGAUGUUGCCUCGUAUUGUACAUUUUGGGGAAAGCCUUGUGUGUAAAUCAGUGUAAACUUGGAGGAGAGAUUUUUUGGAAUUCUCGGGUGCCAA: 1.14
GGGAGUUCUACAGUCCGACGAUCAGCUUGCUCCCAGCCCCCUCCCCAAUUUGGUUCCGUUGACAUAGGAAUUUUACGAUUCCCAAACCAUGCAGGGGCUGAGCCUUCCUUAUGAUGACUUUGUUCUCCCUCCCUGGAAUUCUCGGGUGCCAA: 0.439
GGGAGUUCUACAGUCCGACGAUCGGAGGUGGAGGGAAGCUAAGCAAUAGACAGGAGCCGUCACAGGAAGUCACUGGCAAUACGGGUUUAAAGCAGGUACUUAGAUCACGGUUUUCUCUGUAAGAAAAUAUGGCUGGAAUUCUCGGGUGCCAA: 0.596
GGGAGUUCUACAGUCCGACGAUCACAACCUGCAGGGCGGCGACGACCUGGACCCCAACUACGUGCUGAGCUCGCGGGUGCGCACGGGCCGCAGCAUCCGUGGCUUCUGCCUCCCCCCGCACUGCAGCCGCGGGUGGAAUUCUCGGGUGCCAA: 0.411
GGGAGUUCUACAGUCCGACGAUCACACUCAGCCAGGCCUGUCAUGAUUGGCUUUAUUUCUUUCAUCAUUCAUAAAAGUUUGCAUGUGUUUUUAUUCUCUAGAUCUGUUACCAAUAUAGUUUUCUAACUCCUGUUGGAAUUCUCGGGUGCCAA: 6.84
